# Assay results of several laboratories.
# Lines come from different studies, so protocols differ. Several values in a cell are separate wells, animals, samples, runs or records. ± gives the spread as reported.
SMILES,test,test system,setting,scale,quantity,result
CCn1cc(C(=O)N2CCOCC2)c(=O)c2cc(NC3Cc4ccccc4C3)cnc21,,"human, fed","oral suspension, 1200 mg/day twice daily, day 8, arithmetic mean",,AUC(0-12),21900 ng·h/mL
NCCONC(=O)[C@@H]1CC[C@@H]2CN1C(=O)N2OS(=O)(=O)O,item: infusion-related reaction,healthy Chinese men,"intravenous, 1 g, treatment-related",,adverse event incidence,0%
CO[C@H]1C[C@@H]2CC[C@@H](C)[C@@](O)(O2)C(=O)C(=O)N2CCCC[C@H]2C(=O)O[C@H]([C@H](C)C[C@@H]2CC[C@@H](O)[C@H](OC)C2)CC(=O)[C@H](C)/C=C(\C)[C@@H](O)[C@@H](OC)C(=O)[C@H](C)C[C@H](C)/C=C/C=C/C=C/1C,,healthy adult horses,"intravenous, 0.06 mg/kg, 10 h",,rectal temperature,37.4 ± 0.3 °C
Cc1c(-c2ccc(N3CCc4cccc(C(=O)Nc5nc6ccccc6s5)c4C3)nc2C(=O)O)cnn1CC12CC3(C)CC(C)(C1)CC(OCCNCC[C@H](O)CO)(C3)C2,,"beagle dog, anaesthetised","intravenous infusion, 0.3 mg/kg/min, 90 min",reference: vehicle,PR interval change,0 ms
COc1cccc(OC)c1-c1cc(C(=O)NC2(C(=O)O)C3CC4CC(C3)CC2C4)nn1-c1ccc(C(=O)N(C)CCCN(C)CCCN(C)C(=O)CN2CCN(CC(=O)[O-])CCN(CC(=O)[O-])CCN(CC(=O)[O-])CC2)cc1C(C)C.[177Lu+3] (centres unmarked),,"mouse HT-29 xenograft, large intestine","72 h post injection, biodistribution",,tissue uptake,0.1 %ID/g
C[C@@H]1COCCN1c1cc(C2([S@](C)(=N)=O)CC2)nc(-c2cc[nH]c3nccc2-3)n1,,Japanese advanced solid tumour patients,"oral, 240 mg twice daily, any grade",,Pyrexia incidence,0%
CC(C)C[C@H](NC(=O)[C@@H](Cc1c[nH]c2ccccc12)NC(=O)[C@H](Cc1ccc(O)cc1)NC(=O)[C@H](CO)NC(=O)[C@H](Cc1c[nH]c2ccccc12)NC(=O)[C@H](Cc1c[nH]cn1)NC(=O)[C@@H]1CCC(=O)N1)C(=O)N[C@@H](CCCNC(=N)N)C(=O)N1CCC[C@H]1C(=O)NCC(N)=O,,Chinese CPP girls,"intramuscular, 22.5 mg, 12 months, day 1, month 6",,"patients, drug-related Obesity TEAEs",3.2%
O=C(Nc1cnccc1Cl)N1CCN(Cc2ccc3c(c2)OC(F)(F)O3)CC1,item: Somnolence,human healthy young women,"100 mg, multiple dose",,adverse event incidence,16.7%
C[C@@H]1OC(=O)[C@H](Cc2ccccc2)[C@H]1O,soil adsorption,clay soil,"pH 7.6, organic carbon 1.7 %",,Freundlich coefficient KF,3.71 mL/g
CNCc1ccc(-c2[nH]c3cc(F)cc4c3c2CCNC4=O)cc1,,patients,"oral, 600 mg twice daily, grade 5",,asthenia/fatigue incidence,0%
C[Si](C)(C)O[Si](C)(C)C,,octanol/air,25 °C,,"log KOA difference, dry minus wet octanol",0.27 log units
N#Cc1ccc2c(c1)[C@H]1CCCN(C(=O)c3ccc4[nH]cnc4c3)[C@H]1C2,,human,"360 mg, end of trial",,median ACTH level,4.8 pmol/L
CCCCCCCOc1ccc(CCC(N)(CO)CO)cc1C(F)(F)F.Cl,,"healthy men, urine","oral, 0.125 mg once daily, day 21, fed state",reference: dose,urinary excretion,0.06%
O=C(Nc1nc2cccc(-c3ccc(CN4CCS(=O)(=O)CC4)cc3)n2n1)C1CC1,item: pyrexia,rheumatoid arthritis patients,"oral, 75 mg once daily, 4 weeks, any relatedness",,treatment-emergent adverse events,0%
CC(=O)N(C)[C@H]1CCN(C(=O)c2cnc3c(c2)C[C@](C)(c2ccc(F)cc2)N3)C1,,human,"oral, 60 mg, after first dose",,duration of mild visual impairment,144 days
C=CC(=O)N1CCC(c2ccc(C(N)=O)c(-c3ccc(Oc4ccccc4)cc3)n2)CC1,,relapsed/refractory mantle cell lymphoma patients,"oral, dose not given, part, all doses, CTCAE v4.03",,serious treatment-related AE rate,0%
CN(C(=O)n1cnc(-c2ccc[n+]([O-])c2)c1)[C@H]1CC[C@H](O)CC1,,"rat, cerebellum","oral, 10 mg/kg single dose, 24 h",,tissue concentration,5.6 ± 4.4 ng/g
COc1cc(Nc2ncc3c(n2)-c2ccc(Cl)cc2C(c2c(F)cccc2OC)=NC3)ccc1C(=O)O,"item: Dyspnea, grade 2","cancer patients, phase 1/2","oral, dose not given, with: pembrolizumab",,patients with adverse event,8%
COc1ncc(-c2nc3c(n2C(C)C)[C@H](c2ccc(Cl)cc2)N(c2cc(Cl)cn(C)c2=O)C3=O)c(OC)n1,,"human patients, plasma","oral, 250 mg, high-dose arm, cycle 1 day 1",,AUC(0-t) geometric mean,41400 ng·h/mL
CCCCC1=NC2(CCCC2)C(=O)N1Cc1ccc(-c2ccccc2S(=O)(=O)Nc2noc(C)c2C)c(COCC)c1,,"healthy adult volunteers, plasma","oral, 100 mg, single dose, fasted, crushed tablet",,Tmax,3.25 h
CO[C@H]1CC[C@H](N2C(=O)CNc3ncc(-c4ccc(C(C)(C)O)nc4)nc32)CC1,,"patients, urine","oral, 15 mg, day -1, geometric mean",,urinary excretion Ae(0-24 h),27500 ng
CNC(=O)c1cc(Oc2ccc(NC(=O)Nc3cc(C(C)(C)C)nn3-c3ccc4ncccc4c3)c(F)c2)ccn1,item: worst grade 3,human,"oral, dose not given, cycles 1 and 2, High AUC(0-4 h) subgroup",,patients with nervous system disorder AE,6%
Cc1cnc(N2CC3(CCOCC3)C2)c(C(=O)Nc2ccc(C(=O)N3CCc4cc(C(=O)Nc5c(C)cccc5F)sc4-c4ccccc43)cc2)c1,,"human, nasal epithelial lining fluid","inhaled, 5 mg twice daily, 84 h",,concentration,6270 ng/mL
NC1(C(=O)N[C@@H](CCO)c2ccc(Cl)cc2)CCN(c2nc[nH]c3nccc2-3)CC1,"LC-MS/MS, non-compartmental","human patients, plasma","160/400 mg cohort, cycle 2, median, with: enzalutamide",,Tmax,2 h
O=C(COc1ccc(Cl)cc1)NC12CC(c3nnc([C@H]4C[C@@H](OC(F)(F)F)C4)o3)(C1)C2,,human both sexes,"oral, 100 mg once daily, 14 days",,participants maximum mild TEAE,100%
C[C@H]1C=C(Cc2ccccc2)C(=O)O1,,light clay soil,"pH 7.3, OC 5.6%",,Freundlich KF,1.8 mL/g
O=C(O)CCCOc1ccc([18F])cc1-c1cc(-c2ccccc2C(F)(F)F)n(-c2ccccc2)n1,gamma counting,"male ddY mice, bone","intravenous, 2.1 MBq, 1 min",,radioactivity uptake,0.76 ± 0.3 SUV
CC(C)(CC(=O)Nc1scc(C2CC2)c1C(=O)O)c1ccc(F)cc1,"colloidal aggregate formation, dynamic light scattering",50 mM potassium phosphate buffer,"200 µM, pH 7.0, 1% DMSO",higher = more aggregation,DLS scattered light intensity,827000 counts/s
CNC(=O)c1ccc(-c2cnc3ncc(Cc4ccc5ncccc5c4)n3n2)cc1F,"item: Pyrexia, all grades",cancer patients,"oral, dose not given, dose escalation, any causality",,patients with adverse event,16%
COC(=O)N[C@H](C(=O)N1CCC[C@H]1c1ncc(-c2cc(F)c3c(c2)O[C@@H](c2cnc(C4CC4)s2)n2c-3cc3cc(-c4cnc([C@@H]5CCCN5C(=O)[C@@H](NC(=O)OC)C(C)C)[nH]4)ccc32)[nH]1)C(C)C,,healthy adult humans,"oral, dose not given",reference: low-fat meal over fasted,Ctrough increase,~44%
Cn1cc([C@H]2C[C@H]3CSC(N)=N[C@@]3(c3ccc(F)cc3F)CO2)cn1,,"male 129/SVE mouse, brain","subcutaneous, 10 mg/kg, 18 h",,brain concentration,0.037 µM
CCc1ccc(C(=O)Oc2ccc(C#N)c(F)c2)cc1,item: compound,"human pregnant women, female fetuses, maternal serum","dose not given, paired maternal-cord samples, mean",,concentration,3.49 ng/mL
Cc1nc2cccc(OCC(C)(C)C(=O)NC(C)C)c2c(N)c1C(=O)O.Cc1nc2cccc(OCC(C)(C)C(=O)NC(C)C)c2c(N)c1C(=O)O.O=S(=O)(O)O,,"male Sprague-Dawley rat, plasma","oral, 30 mg/kg",,Tmax,0.25 h
CC(C)c1nc(CN(C)C(=O)N[C@H](C(=O)N[C@@H](Cc2ccccc2)C[C@H](O)[C@H](Cc2ccccc2)NC(=O)OCc2cncs2)C(C)C)cs1,,Macaca nemestrina,"subcutaneous, medium pathway, TLC-ART",,lymph node sequestered fraction,0.65
O=C1NCCc2nc(OCc3cccc(F)c3)ccc21,modified Irwin test,"Sprague-Dawley rat, male","oral, 100 mg/kg, 4 h",higher = stronger effect,corneal reflex loss score,0
O=C(N[C@H](Cc1c[nH]c2ccccc12)C(=O)Nc1ccncc1)c1ccc(-c2cc(C(F)(F)F)ccc2F)cc1F,,"Swiss Webster mouse, female, liver","oral, 50 mg/kg, 2 h, 20% HPβCD vehicle",,concentration,10.5 µM
CNCc1ccc(-c2cc(-c3nc(-c4ccc(S(=O)(=O)C(C)C)cc4)cnc3N)on2)cc1,,female BALB/c mice,"single dose, dose not given, 48 h, with: total body irradiation 6 Gy",,lymphocytes in white blood cells,45.8%
Cn1ncc(S(=O)(=O)NC(c2cccc(Cl)c2)c2cccc(Cl)c2)c1C(=O)O,"colloidal aggregate formation, dynamic light scattering",50 mM potassium phosphate buffer,"200 µM, pH 7.0, 1% DMSO",higher = more aggregation,DLS scattered light intensity,229000 counts/s
CC(=O)NC[C@H]1CN(c2ccc(N3CCOCC3)c(F)c2)C(=O)O1,,human whole blood,"concentration not given, 24 h, 4 °C",,deviation from nominal concentration,0.9%
CC[C@H](C)[C@H](NC(=O)[C@H](Cc1ccccc1)NC(=O)[C@H](CCC(=O)O)NC(=O)[C@H](CCCCNC(=O)COCCOCCNC(=O)COCCOCCNC(=O)CC[C@H](NC(=O)CCCCCCCCCCCCCCCCC(=O)O)C(=O)O)NC(=O)[C@H](C)NC(=O)[C@H](C)NC(=O)[C@H](CCC(N)=O)NC(=O)CNC(=O)[C@H](CCC(=O)O)NC(=O)[C@H](CC(C)C)NC(=O)[C@H](Cc1ccc(O)cc1)NC(=O)[C@H](CO)NC(=O)[C@H](CO)NC(=O)[C@@H](NC(=O)[C@H](CC(=O)O)NC(=O)[C@H](CO)NC(=O)[C@@H](NC(=O)[C@H](Cc1ccccc1)NC(=O)[C@@H](NC(=O)CNC(=O)[C@H](CCC(=O)O)NC(=O)C(C)(C)NC(=O)[C@@H](N)Cc1cnc[nH]1)[C@@H](C)O)[C@@H](C)O)C(C)C)C(=O)N[C@@H](C)C(=O)N[C@@H](Cc1c[nH]c2ccccc12)C(=O)N[C@@H](CC(C)C)C(=O)N[C@H](C(=O)N[C@@H](CCCNC(=N)N)C(=O)NCC(=O)N[C@@H](CCCNC(=N)N)C(=O)NCC(=O)O)C(C)C,"QT interval corrected for heart rate, 12-lead Holter ECG",healthy human subjects,"subcutaneous, 1.5 mg once weekly, 48 h post-dose, steady state","reference: placebo, time-matched baseline",placebo-subtracted change in QTcI,-5.4 ms
Cc1ccc2ccccc2c1NS(=O)(=O)c1cccc(Cl)c1O,"colloidal aggregate formation, dynamic light scattering",50 mM potassium phosphate buffer,"200 µM, pH 7.0, 1% DMSO",higher = more aggregation,DLS scattered light intensity,1.38e+06 counts/s
O=C(/C=C/c1ccccc1)Nc1ccc(C(=O)Nc2nccs2)cc1,haemolysis,sheep erythrocytes,"1 h, pH 7.5",,HC50,> 128 µg/mL
O=S(=O)(Nc1cc(-c2ncn[nH]2)ccc1F)c1cc(Cl)cc(Cl)c1O,"colloidal aggregate formation, dynamic light scattering",50 mM potassium phosphate buffer,"200 µM, pH 7.0, 1% DMSO",higher = more aggregation,DLS scattered light intensity,360000 counts/s
COc1cc(C(=O)NC2CCN(C)CC2)c(F)cc1Nc1ncc(C(F)(F)F)c(Oc2cccc3c2C(=O)N(C)C3)n1,,"human patients, plasma","oral, 10 mg once daily repeated, geometric mean",,dose-normalised AUC(tau) at steady state,81.6 nmol·h/L per mg
Cc1cc(-c2nccc3c2ccn3CC(=O)Nc2ccc(-c3cnccn3)cn2)ccn1,,human,"SAD part, single 20 mg dose",,subjects with cardiac disorders TEAEs,0%
CC(=O)O[C@H]1C(=O)[C@@]2(C)[C@H]([C@H](OC(=O)c3ccccc3)[C@]3(O)C[C@H](OC(=O)[C@H](O)[C@@H](NC(=O)c4ccccc4)c4ccccc4)C(C)=C1C3(C)C)[C@]1(OC(C)=O)CO[C@@H]1C[C@@H]2O,item: lymphocyte count decreased,patients with advanced solid tumours,"intravenous, dose not given, phase Ib, related to compound",,"adverse events, all grades",33%
Cc1oc(C)c(S(=O)(=O)NCC(F)(F)c2ccc(Br)cc2)c1C(=O)O,"colloidal aggregate formation, dynamic light scattering",50 mM potassium phosphate buffer,"200 µM, pH 7.0, 1% DMSO",higher = more aggregation,DLS scattered light intensity,1.83e+07 counts/s
CNC(=O)c1ccc(-c2cnc3ncc(Cc4ccc5ncccc5c4)n3n2)cc1F,,Japanese patients,"oral, 400 mg, any grade",,Pyrexia treatment discontinuation,1%
Cc1ccc([C@@H]2O[C@H](CO)[C@@H](O)[C@H](O)[C@H]2O)cc1Cc1ccc(-c2ccc(F)cc2)s1,item: inorganic phosphorus,Japanese type 2 diabetes patients,"25 mg, day 18, 24 h urine collection",reference: baseline,urinary phosphate excretion change,-90.2 mg
CCN1/C(=C/C(C)=O)Sc2ccc(F)cc21,,cynomolgus monkey,"oral, 30 mg/kg, 0.5 h post-dose",,systolic blood pressure,112 ± 8 mmHg
O=S(=O)(NCc1ccnn1C1CC1(F)F)c1cccc(Cl)c1O (centres unmarked),"colloidal aggregate formation, dynamic light scattering",50 mM potassium phosphate buffer,"200 µM, pH 7.0, 1% DMSO",higher = more aggregation,DLS scattered light intensity,388000 counts/s
CCN(Cc1ccc(F)cc1)c1ccc(CO)c(Cl)c1,,"F344 rat, male, serum","oral, 100 mg/kg/day, 2 days",,GGT,4 U/L and 3 U/L and 0 U/L
CC(C)(C(=O)N1CCOc2c(C#N)cncc2C1)C(F)F,item: skin abrasion,human,"oral, 15 mg twice daily, 14 days, multiple ascending dose",,subjects with adverse event,0%
